Measurements collected from several papers.
Lines come from different studies, so protocols differ. ± marks the error that the study gave.
Organism: Salmonella typhimurium

SMILES | test | test system | setting | scale | quantity | result
CNC(=O)c1c(N(C)N=O)ncn1C | mutagenicity, Ames plate incorporation | TA1537 | 50 µg/plate, without S9, methanol |  | revertant colonies per plate | 13 ± 4
OC(CCN1CC=C(c2ccc(F)cc2)CC1)c1ccc(F)c2ccccc12 (stereo not drawn) | genotoxicity, SOS/umu test | TA1535/pSK1002 | 0.063 mg/mL, 4 h, without S9, lower range |  | induction factor | 0.7
COc1cccc(-c2n[nH]c(SCc3ccccn3)n2)c1OC | Ames preincubation | TA98 | 1.0 mg per plate, added: rat liver S9 |  | revertant colonies per plate | 7
O=[N+]([O-])c1ccc(NC2CCNCC2)c(C(F)(F)F)c1 | genotoxicity, SOS/umu test | TA1535/pSK1002 | 0.002 mg/mL, 4 h, without S9, full range |  | induction factor | 0.6
CC(=O)N1CCC(C(=O)N2CCN3C(=O)c4cc(-c5ccccc5)ccc4NC(=O)C3C2)CC1 (stereo not drawn) |  | TA98 | 500 µg/plate | reference: vehicle | fold increase in revertants | 1.2
CC(C)N(C)N=O | mutagenicity, Ames plate incorporation | TA1535 | 50 µg/plate, 3 d, without S9, methanol |  | revertant colonies per plate | 19 ± 5
Cc1cc(C(=O)NC(C)(C)COc2cccc3c2C(N)=NS(=O)(=O)N3)cc(C)n1 | Ames test, confirmatory | TA100 | 333 µg/plate, added: rat liver S9 | reference: solvent control | revertant ratio | 0.9
Fc1ccc(C2=CCNCC2)cc1 | SOS/umu test | TA1535/pSK1002 | 0.5 mg/mL, 4 h, with S9, full range |  | survival | 80.3%
COCCN(CCOC)N=O | mutagenicity, Ames plate incorporation | TA100 | 500 µg/plate, 3 d, without S9, methanol |  | revertant colonies per plate | 124 ± 8
O=[N+]([O-])c1ccc(N2CCN(CCC(O)c3ccc(F)cc3)CC2)c(C(F)(F)F)c1 (stereo not drawn) | SOS/umu test | TA1535/pSK1002 | 0.125 mg/mL, 4 h, with S9, full range |  | survival | 42.6%
CN(N=O)c1ccc(F)cc1 | mutagenicity, Ames plate incorporation | TA100 | 150 µg/plate, 3 d, without S9, methanol |  | revertant colonies per plate | 155 ± 11
N#C[C@@]1(n2ccc(N)nc2=O)O[C@H](CO)[C@@H](O)[C@H]1O |  | TA100 | 2.5 µM, without S9, unit not given | reference: control | viability | 99.6

Repeated from above:
SMILES | test | test system | setting | scale | quantity | result
N#C[C@@]1(n2ccc(N)nc2=O)O[C@H](CO)[C@@H](O)[C@H]1O |  | TA100 | 2.5 µM, without S9, unit not given | reference: control | viability | 99.6
